Results collected from several papers.
Every numbered part comes from another study and shows a few of its results, in no order. Positions count from the first letter of the parent shown.

Study 1
Target: Histone acetyltransferase KAT6A, winged helix 2, GST fusion (KAT6A, Homo sapiens, UniProt Q92794, residues 85-181)
Method: protein binding microarray
Molecule type: double-stranded DNA, one strand shown
Matrix: in vitro
Tested at: not given
Notes: 8-mer, flanks averaged, mean of 2 arrays, mostly near background
Baseline: not given
Reading: higher = stronger binding
Construct (chain): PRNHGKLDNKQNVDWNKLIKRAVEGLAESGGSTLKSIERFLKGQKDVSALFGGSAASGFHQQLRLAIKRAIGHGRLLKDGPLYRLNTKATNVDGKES
| Sequence | E-score |
| --- | --- |
| CATGCGCG | 0.0567 |
| ATAGTGCG | 0.0212 |
| ATAGGTGG | -0.157 |
| ATCGTATC | -0.115 |
| GTAAGTCA | -0.117 |
| AGCAGTAG | 0.0602 |
| ACCCTGCC | -0.00348 |
| ATCATGGG | 0.00851 |
| AACCTACC | -0.0592 |
| AGTCGGTC | -0.246 |
| CGATGCAC | -0.0743 |
| CCGTGAAG | -0.0271 |
| AGGAAGTC | -0.278 |
| TACGGCAA | 0.0114 |
| GCCCGTAA | -0.0177 |
| AACCGTAC | -0.244 |
| AATGTTTA | -0.0994 |
| ATGGGTAG | -0.222 |
| CGTGGTTC | -0.0847 |
| AATGTGTG | -0.138 |
| GTATAGGA | -0.215 |
| CATGCCCA | -0.0977 |
| TATCCCGA | 0.0705 |
| ACCAACTG | -0.115 |
| GGATGCAC | -0.00392 |

Study 2
Target: RNA binding protein fox-1 homolog 2, RRM domain, GST-SBP tag (RBFOX2, Homo sapiens, UniProt O43251-10, residues 100-194)
Method: RNA Bind-n-Seq
Molecule type: RNA
Matrix: in vitro
Tested at: 365 nM
Notes: natural RNA segment, single round, ends assumed
Baseline: no-protein control
Reading: higher = stronger binding
Shared flanks, not repeated: GGGAGUUCUACAGUCCGACGAUC … UGGAAUUCUCGGGUGCCAA
Residues (chain): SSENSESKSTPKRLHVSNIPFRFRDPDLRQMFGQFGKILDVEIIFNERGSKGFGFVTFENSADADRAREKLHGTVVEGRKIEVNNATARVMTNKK
| Sequence | RBNS enrichment (R) |
| --- | --- |
| CUGGACCACUGGCUCAUCAUGCAAUGAAAAGGUGAGCAGACUUAACCCCUCCGUGCCUCAGCUUUUUCCCCACAGACACCUACCUCACAGGGGCAUUGAGAAAAAAAAAA | 1.16 |
| UACCGUGAGCCUUCACAAACAUCAUUCUCGAGGUUUUUUGCUUUUCUCCCUGCUUCAGUCUCCAGAGAACAUAAAUGGCCAAAAAUGUUAAGUCUGGCUAUAUUUGAAGG | 0.366 |
| UGAUUCUUCUCGUUUGAAAGAUGAGCAGAUUAGAACGCAGAGAGUACAGAUUGUGGGAAGAAGCAGAAACACAAUUCAGAACACCGUCUUCUCCACCCACAGUCCAACUC | 0.271 |
| AGCCAAUGGGAAACCAAAAGGAGCUCACUUCCUGUUCUUCCUAGCUCCCCUCCCUGCCGCUGUGCUCCGCUCCUCCCCACACUUCCUUGCUACAGUUCCCAGCUGCUGUA | 0.332 |
| CACGUGCAGCUCAUGACAAUCUGUAGGAUAACAAUCAGUGUGGAUUUCCACUCUUUUCAGUCCUUCAUGUUAAAGAUUUAGACACCACAUACAACUGGUAAAGGACGUUU | 0.269 |
| UUAGCUUUCUAACUAGUCAGAUUUCUGCCCAAAGUGCUUAGUCAAUAGUAAUUAAGAUAUAGCUUCAAAAAUGGCUUUGCUUUUGAUUUCUACUCAUAUUCGUAUGGCUC | 0.387 |
| GUCGCCUGCCCCCAGCACUCCUCUGUCUCUGCUCUUGCCUGCACCCUUCCUCCUCCUUUGCCUAGGAGGCCUUCUCGCAUUUUCUCUAGCUGAUCAGAAUUUUACCAAAA | 3 |
| GGCAUCUACAGGGUUACUGUUUGCAUUUUCUACCCACAAGCAGAAGGAGACAGUGACAAUGGGCAGUGGAUAGCCCUCACUCGUGAGUGUUUAAUGUUGCAGCAAACUCA | 0.493 |
| CAUUUGUAGUUGAGCGGGGGGUUUGGUUUGCUUUGGUUUAUAUUUUUUCAGUUGUUUGUUUUUGCUUGUUAUAUUAAGCAGAAAUCCUGCAAUGAAAGGUACUAUAUUUG | 1.3 |
| UAAGCUAUGGGCUUGAAGAUGUUCUUAUAUUUCAGUGACAAUGGACACCUUAGCUUCUUAUGAGGAACUUGAGUUCCCUCCGCCUUGGACAGGGCUGCAGGGCCACGCUG | 0.543 |
| CAGGAGCCAGGAAACCACUUUAAGAUGUAAGCCAUUGUGUGUCUCUAGUUUCUUAAGCAGACCAAGUGAAUGGCUUACAGUCUGAAACAAAUAAAAGCCUUUGUAAAAGU | 0.486 |
| UUUAAUAUGUACAGUUAGUUUGCUCUGGAUUAGUAUAUAAGUACAUUUUAUUAGGGGUUGUGACAACAUUAUUAAACUUUUGUGUAUAUAAAGCCAGGUGUCUUAGCUAG | 0.562 |

Study 3
Target: Ras GTPase-activating protein-binding protein 1, C-terminal RGG region (G3BP1, Homo sapiens, UniProt Q13283)
UniProt Q13283, sequence (whole entry, looked up): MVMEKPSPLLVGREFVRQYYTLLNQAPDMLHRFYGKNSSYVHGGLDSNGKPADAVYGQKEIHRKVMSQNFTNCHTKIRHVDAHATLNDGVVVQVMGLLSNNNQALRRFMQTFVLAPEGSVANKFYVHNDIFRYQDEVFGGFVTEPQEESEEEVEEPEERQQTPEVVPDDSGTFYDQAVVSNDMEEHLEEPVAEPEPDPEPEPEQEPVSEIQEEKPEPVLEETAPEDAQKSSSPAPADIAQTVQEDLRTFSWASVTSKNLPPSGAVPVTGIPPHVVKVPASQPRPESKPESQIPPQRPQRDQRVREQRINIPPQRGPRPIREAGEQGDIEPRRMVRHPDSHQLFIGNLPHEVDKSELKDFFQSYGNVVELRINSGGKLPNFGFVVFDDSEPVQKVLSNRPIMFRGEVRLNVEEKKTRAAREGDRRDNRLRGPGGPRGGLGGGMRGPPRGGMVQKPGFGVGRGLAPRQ
Method: RNA Bind-n-Seq
Molecule type: RNA
Matrix: in vitro
Tested at: 1 µM
Notes: whole 134-nt RNA, ends assumed
Together with: 150 mM KCl
Baseline: input library
Reading: higher = stronger binding
Shared flanks, not repeated: GGGAGUUCUACAGUCCGACGAUC … UGGAAUUCUCGGGUGUCAAGG
| Sequence | log2 enrichment |
| --- | --- |
| CAAAAUACCAAGGGAUUUAUAUGAGGAUGAGUUGGUGCCCCUUUUUGAGAAGGCCGGACCCAUUUGGGAUCUACGUCUUAUGAUGGAUCC | -1.27 |
| ACCAUGCAGGUGGGCAUCUUUGGGAAGUGGGGCAAGGGGGGGGUAGGGAGGGGGGUAACACUUUGGGAACAGGUGGUCCCAGGUCGUUUC | 1.98 |
| CAAGUCCUGUGCUACACAUCGUAUGUACCGAAUCGGCCCGGGGCCCGGGGCCCGGGAAAGUAUUAUGUUACGCCGUUCGGAUCUGCACUU | -1.81 |
| UGGUAGGUGGAUUUUGUUUAUUUUUUUAGCUCAUUUCCAGGGGUGGGAAUUUUUUUUUAAUAUGUGUCAUGAAUAAAGUUGUUUUUGAAA | 4.2 |
| ACCAUGCAGGUGGGCCUCUUUGGGAAGUGGGGCAAGGGGGGGAUAGGGAGGGGGGUAACACUUUGGGAACAGGUGGUCCCAGGUCGUUUC | -1.31 |
| UCCUGUGCUACACAUCGUAUGUACCGAAUCAAAGUGUGUGUGUGUGUGUGUGUGUGAAAAAAGUAUUAUGUUACGCCGUUCGGAUCUGCA | 1.27 |
| UCAAGUCCUGUGCUACACAUCGUAUGUACCGAAUCGGAAAAAAAGGUGGUUUGGAAAGUAUUAUGUUACGCCGUUCGGAUCUGCACUUCC | -1.43 |
| GUCAAGAAAGAUCUUAAGACUGGUCAUUCAAAGGGGUUUGGCUUUGUUCGUUUUACGGAAUAUGAAACACAAGUGAAAGUAAUGUCACAG | -1.25 |
| UUUUCUUCUGGGGCAUUUAUCCGUGCUGAUCUUGGUGAAUGGGGCAUGAGUCUAACGAUCAGAGCCCCUAGUGUAGAUUACAGAAACACU | -0.112 |
| UGGCCCUUGUGGCAUGCGGGGAGGAAGAGGUGGCCUCAUGGAUCGUGGUGGUCCCGGUGGAAUGUUCAGAGGUGGCCGUGGUGGAGACAG | 1.86 |
| AGUCCUGUGCUACACAUCGUAUGUACCGAAUCGGGUUUGGGUUUUUGGGUUUUUGGGAAAGUAUUAUGUUACGCCGUUCGGAUCUGCACU | 0.571 |
| UGUCCUGCAGGGUCGGACCGAUACCUGGAGAGCCGCGAUGCCUCUCGACUGAGUGGCCGGGACCCCUCCUCAUGGACAGUCGAGGAUGUG | -2.11 |
| AAGUCCUGUGCUACACAUCGUAUGUACCGAAUCGGGUUUUUGGGUGGGAAAAAGGGAAAGUAUUAUGUUACGCCGUUCGGAUCUGCACUU | 0.697 |
| UGGGAGGUGGAUUUUGUUUAUUUUUUUAGCUCAUUUCCAGGGUUGGGAAUUUUUUUUUAAUAUGUGUCAUGAAUAAAGUUGUUUUUGAAA | 3.25 |

Study 4
Target: CCNB1, cyclin fold, Cln2 fusion (human)
Method: yeast growth competition, sequencing
Matrix: yeast
Notes: weak parent motif
Baseline: not given
Reading: higher = stronger binding
Parent: E2F7 docking peptide (human); SSAQRRLEIPSGG
| Change | normalised enrichment score |
| --- | --- |
| SSAQRRLEAPSGG [I9A] | 0.524 |
| SSAQRRLEIASGG [P10A] | 0.109 |
| SSAQRRLEFPSGG [I9F] | 0.8 |
| SSAQKRLELPSGG [R5K I9L] | 0.0749 |
| SSAQRRLEIPAGG [S11A] | -0.133 |
| SSAQRRLAIPSGG [E8A] | 0.631 |
| SAAQRRLEIPSGG [S2A] | 0.0219 |
| SSAQRRLEIPSGA [G13A] | 0.284 |

Study 5
Target: ABI1, truncated, D143A, DHFR fusion (Arabidopsis thaliana)
Method: DHFR PCA, deep sequencing
Matrix: yeast
Notes: methotrexate growth selection, single substitutions
Together with: (+)-ABA 0 µM
Baseline: wild-type fitted maximum
Reading: higher = stronger binding
Parent: PYL1, truncated, DHFR fusion (Arabidopsis thaliana); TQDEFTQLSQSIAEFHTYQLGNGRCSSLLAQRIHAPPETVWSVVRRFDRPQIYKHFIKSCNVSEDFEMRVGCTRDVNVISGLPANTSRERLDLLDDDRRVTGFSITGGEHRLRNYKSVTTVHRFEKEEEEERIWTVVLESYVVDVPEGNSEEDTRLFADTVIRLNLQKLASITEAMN; partner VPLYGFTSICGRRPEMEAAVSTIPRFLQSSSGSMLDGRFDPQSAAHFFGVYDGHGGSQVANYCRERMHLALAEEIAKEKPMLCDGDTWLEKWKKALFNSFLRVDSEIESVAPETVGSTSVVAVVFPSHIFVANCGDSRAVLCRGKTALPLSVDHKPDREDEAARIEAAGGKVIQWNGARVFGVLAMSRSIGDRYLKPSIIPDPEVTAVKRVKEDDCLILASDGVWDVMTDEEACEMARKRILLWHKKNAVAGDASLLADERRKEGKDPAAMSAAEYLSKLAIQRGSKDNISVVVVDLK
| Change | relative binding score |
| --- | --- |
| E109T | -0.48% |
| F124N | 2.43% |
| L138R | -0.0536% |
| D153H | 2.06% |
| D153W | -1.43% |
| W134M | 27% |
| H34G | 4.75% |
| I133R | 11.7% |
| R45G | -3.75% |
| H16E | 2.73% |
| E129K | 19.1% |
| L20V | 52.9% |
| T120C | -3.47% |

For quick reference, copied from above (study 5):
| Change | relative binding score |
| --- | --- |
| D153H | 2.06% |
| L20V | 52.9% |
| H16E | 2.73% |
| T120C | -3.47% |
| I133R | 11.7% |
| E129K | 19.1% |
| F124N | 2.43% |
| L138R | -0.0536% |
| W134M | 27% |
